Measurements collected from several papers.
Numbered parts are unrelated; each lists some results of a single study. Changes are numbered by the printed parent chain.

Sample 1
Target: Prothrombin, mature alpha-thrombin (F2, Homo sapiens, UniProt P00734)
Technique: aptamer microarray, sandwich
Form: DNA with 2'F-ANA
Matrix: in vitro
Tested at: 200 nM
Setting: whole 15-mer aptamer, many near background
Added: Cy3 exosite-II aptamer, 400 nM
Reading: higher = stronger binding
Measurement: mean fluorescence intensity
Sequence: GGTTGGTGTGGTTGG
2'F-ANA at 2 3 5 9 10 13: 57.4 a.u.
2'F-ANA at 1 3 10 11 13 14 15: 227 a.u.
2'F-ANA at 1 2 4 6 10 11 12 13 14 15: 50.6 a.u.
2'F-ANA at 1 3 5 7 10 11 12 13 15: 104 a.u.
2'F-ANA at 3 6 10 12 13 15: 482 a.u.
2'F-ANA at 2 4 5 7 9 11 12: 116 a.u.
2'F-ANA at 1 2 3 5 8 9 12 13 14 15: 51.2 a.u.
2'F-ANA at 2 3 4 8 14 15: 322 a.u.
2'F-ANA at 1 5 6 7 10 12 13: 44.8 a.u.
2'F-ANA at 4 6 7 9 11 13 15: 132 a.u.
2'F-ANA at 3 4 6 7 8 9 10 11 13 14 15: 150 a.u.
2'F-ANA at 1 3 4 5 6 8 14: 45 a.u.
2'F-ANA at 1 2 9 11 12 14: 60.6 a.u.
2'F-ANA at 1 4 6 7 9 10 11 12: 55.7 a.u.
2'F-ANA at 2 5 6 7 8 9 10 12 13: 51.3 a.u.
2'F-ANA at 2 5 9 11: 85.8 a.u.
2'F-ANA at 1 4 5 7 8 10 11 13: 51.1 a.u.
2'F-ANA at 2 5 7 8 9 11 13 14: 83.7 a.u.

Sample 2
Target: Histone acetyltransferase KAT6A, winged helix 2, GST fusion (KAT6A, Homo sapiens, UniProt Q92794, residues 85-181)
Technique: protein binding microarray
Form: double-stranded DNA, one strand shown
Matrix: in vitro
Tested at: not given
Setting: 8-mer, flanks averaged, mean of 2 arrays, mostly near background
Reference: not given
Reading: higher = stronger binding
Measurement: E-score
Residues (chain): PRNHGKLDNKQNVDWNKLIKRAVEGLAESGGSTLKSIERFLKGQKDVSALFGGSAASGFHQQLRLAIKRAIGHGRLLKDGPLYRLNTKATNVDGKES
TAACTGTA: -0.19
TCGCCGCA: 0.167
ACACATCC: 0.0579
GCCGGCCA: 0.175
GCTACCAA: -0.0116
CTCTACTA: -0.0417
GTGGCAAA: 0.0309
GTACGCGA: -0.181
GCGCGTCA: 0.00309
CGGTATTC: 0.0191
AGTTTGGG: 0.2
ACTACTCG: -0.102
CGCAGGAC: 0.0258
ATATGTAG: 0.0297
ACTGAGTA: -0.157
AGAGGCCT: -0.0323

Sample 3
Target: CCND1, cyclin fold, Cln2 fusion (human)
Technique: yeast growth competition, sequencing
Matrix: yeast
Setting: weak parent motif
Reference: not given
Reading: higher = stronger binding
Measurement: normalised enrichment score
Parent: ASZ1 docking peptide (human); GFGFLLFICKLTF; partner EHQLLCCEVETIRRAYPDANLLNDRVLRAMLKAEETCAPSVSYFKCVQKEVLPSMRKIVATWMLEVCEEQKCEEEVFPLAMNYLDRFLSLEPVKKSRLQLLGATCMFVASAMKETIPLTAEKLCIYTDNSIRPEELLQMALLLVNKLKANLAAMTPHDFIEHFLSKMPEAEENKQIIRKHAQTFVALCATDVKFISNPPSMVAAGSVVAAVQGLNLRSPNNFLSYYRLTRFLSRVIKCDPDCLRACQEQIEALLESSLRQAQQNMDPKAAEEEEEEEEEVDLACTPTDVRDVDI
GFGFLLFACKLTF [I8A]: -0.0475
GFGFLLFIAKLTF [C9A]: 0.318
GFGFLLFICKATF [L11A]: 0.164
GFGALLFICKLTF [F4A]: -0.111
GFGFLAFICKLTF [L6A]: 0.0704
GFGFALFICKLTF [L5A]: -0.205

Sample 4
Target: Interferon regulatory factor 5, full length, phosphomimetic (IRF5, Homo sapiens, UniProt Q13568-2, residues 1-514, S451D/S453D/S456D/S462D)
Technique: protein-binding microarray
Form: double-stranded DNA, one strand shown
Matrix: in vitro
Tested at: 940 nM top
Setting: 60-bp whole probe
Added: salmon DNA 0.4 mg/ml
Reference: random background probes
Reading: higher = stronger binding
Measurement: fitted relative affinity
Shared flanks, not repeated: GCCTAGCAC … GTCTTGATTCGCTTGACGCTGCTG
GAGGGTGTTCTTTTCTGTTGGTGCTAG: 0.449 z-score
TCATGTTTTTTTCTATAACTGTGCTAG: 1.21 z-score
TAAGGTCTCGGACTGGGTTAGTGCTAG: 0.756 z-score
TGAGGTCTCGGTCTCGGTTAGTGCTAG: 3.74 z-score
TTAGATCTCAGTATCGATTGGTGCTAG: 4.79 z-score
TTAGGTGTCCTTTTCCTTTAGTGCTAG: 0.385 z-score
TTAGATATCAGACTCGATTAGTGCTAG: -0.116 z-score
TTAGAGATCAGACTGGATTAGTGCTAG: -0.707 z-score
TCAACTCTTTCTGTCAGACTGTGCTAG: 1.26 z-score
TCACCTCTTTCACTGGTACTGTGCTAG: 1.44 z-score
GACGGTCTCAGTCTCGGGACGTGCTAG: 1.79 z-score
TCAAGCATTACTTTAGGACTGTGCTAG: -0.163 z-score
TTTTTTTTCACTATTGCTTCGTGCTAG: 2.26 z-score
TTAGGACTCGGTATCGGTTAGTGCTAG: 3.97 z-score
GACGGGATCGGGTATCGGGACGTGCTA: 1.08 z-score
